Measured values collected from several papers.
Compare with care: the assays were run in different laboratories. Several values in a cell are separate wells, animals, samples, runs or records. ± gives the spread as reported.
ipgm-1: ipgm-1 (Brugia malayi, UniProt Q4VWF8)
UniProt Q4VWF8, sequence (whole entry, looked up): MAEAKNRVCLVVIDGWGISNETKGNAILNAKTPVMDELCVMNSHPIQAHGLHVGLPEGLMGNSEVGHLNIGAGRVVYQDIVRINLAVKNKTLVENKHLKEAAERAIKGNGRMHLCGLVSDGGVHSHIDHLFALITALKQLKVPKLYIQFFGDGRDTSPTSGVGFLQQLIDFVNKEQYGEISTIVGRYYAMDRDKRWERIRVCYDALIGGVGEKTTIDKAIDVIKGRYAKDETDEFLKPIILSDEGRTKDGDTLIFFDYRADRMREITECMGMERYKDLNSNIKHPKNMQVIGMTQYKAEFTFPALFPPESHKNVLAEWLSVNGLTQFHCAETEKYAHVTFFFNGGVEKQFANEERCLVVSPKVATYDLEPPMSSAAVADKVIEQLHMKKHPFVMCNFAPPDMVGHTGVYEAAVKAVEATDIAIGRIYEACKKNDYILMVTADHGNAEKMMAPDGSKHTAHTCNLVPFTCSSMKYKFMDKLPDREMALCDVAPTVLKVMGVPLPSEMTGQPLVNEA
FGFR1: Fibroblast growth factor receptor 1 (FGFR1, Homo sapiens, UniProt P11362)
UniProt O66465, sequence (whole entry, looked up): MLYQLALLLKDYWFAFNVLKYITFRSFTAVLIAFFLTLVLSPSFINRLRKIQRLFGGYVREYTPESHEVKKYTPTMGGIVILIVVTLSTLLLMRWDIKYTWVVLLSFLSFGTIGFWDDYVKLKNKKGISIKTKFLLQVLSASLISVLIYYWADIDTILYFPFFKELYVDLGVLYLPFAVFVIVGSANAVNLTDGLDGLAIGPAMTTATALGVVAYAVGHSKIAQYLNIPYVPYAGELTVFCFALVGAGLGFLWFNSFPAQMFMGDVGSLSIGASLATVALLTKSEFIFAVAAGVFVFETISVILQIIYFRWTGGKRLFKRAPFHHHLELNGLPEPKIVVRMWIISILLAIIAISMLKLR
UniProt P11362, sequence (whole entry, looked up): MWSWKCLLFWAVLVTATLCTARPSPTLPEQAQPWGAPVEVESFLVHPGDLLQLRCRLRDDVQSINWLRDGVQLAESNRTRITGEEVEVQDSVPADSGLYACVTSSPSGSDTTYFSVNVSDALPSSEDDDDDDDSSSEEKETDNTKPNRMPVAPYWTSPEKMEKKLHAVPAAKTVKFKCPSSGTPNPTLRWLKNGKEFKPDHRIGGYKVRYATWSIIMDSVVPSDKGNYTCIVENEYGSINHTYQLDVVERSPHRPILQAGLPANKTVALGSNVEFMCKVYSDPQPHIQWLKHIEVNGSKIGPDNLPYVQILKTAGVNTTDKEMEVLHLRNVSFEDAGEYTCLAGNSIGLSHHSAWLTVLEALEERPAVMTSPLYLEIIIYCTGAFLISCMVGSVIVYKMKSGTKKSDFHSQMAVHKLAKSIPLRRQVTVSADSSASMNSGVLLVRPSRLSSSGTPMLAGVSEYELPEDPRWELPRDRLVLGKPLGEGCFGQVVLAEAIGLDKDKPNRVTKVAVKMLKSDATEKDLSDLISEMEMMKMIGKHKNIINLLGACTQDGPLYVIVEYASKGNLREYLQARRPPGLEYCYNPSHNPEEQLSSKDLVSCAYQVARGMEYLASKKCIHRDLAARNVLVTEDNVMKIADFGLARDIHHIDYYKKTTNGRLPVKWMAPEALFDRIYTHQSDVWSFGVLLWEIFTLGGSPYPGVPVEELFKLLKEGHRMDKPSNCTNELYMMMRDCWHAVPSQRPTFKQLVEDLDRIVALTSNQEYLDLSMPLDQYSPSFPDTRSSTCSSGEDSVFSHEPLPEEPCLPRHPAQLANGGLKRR
UniProt Q9Y566, sequence (whole entry, looked up): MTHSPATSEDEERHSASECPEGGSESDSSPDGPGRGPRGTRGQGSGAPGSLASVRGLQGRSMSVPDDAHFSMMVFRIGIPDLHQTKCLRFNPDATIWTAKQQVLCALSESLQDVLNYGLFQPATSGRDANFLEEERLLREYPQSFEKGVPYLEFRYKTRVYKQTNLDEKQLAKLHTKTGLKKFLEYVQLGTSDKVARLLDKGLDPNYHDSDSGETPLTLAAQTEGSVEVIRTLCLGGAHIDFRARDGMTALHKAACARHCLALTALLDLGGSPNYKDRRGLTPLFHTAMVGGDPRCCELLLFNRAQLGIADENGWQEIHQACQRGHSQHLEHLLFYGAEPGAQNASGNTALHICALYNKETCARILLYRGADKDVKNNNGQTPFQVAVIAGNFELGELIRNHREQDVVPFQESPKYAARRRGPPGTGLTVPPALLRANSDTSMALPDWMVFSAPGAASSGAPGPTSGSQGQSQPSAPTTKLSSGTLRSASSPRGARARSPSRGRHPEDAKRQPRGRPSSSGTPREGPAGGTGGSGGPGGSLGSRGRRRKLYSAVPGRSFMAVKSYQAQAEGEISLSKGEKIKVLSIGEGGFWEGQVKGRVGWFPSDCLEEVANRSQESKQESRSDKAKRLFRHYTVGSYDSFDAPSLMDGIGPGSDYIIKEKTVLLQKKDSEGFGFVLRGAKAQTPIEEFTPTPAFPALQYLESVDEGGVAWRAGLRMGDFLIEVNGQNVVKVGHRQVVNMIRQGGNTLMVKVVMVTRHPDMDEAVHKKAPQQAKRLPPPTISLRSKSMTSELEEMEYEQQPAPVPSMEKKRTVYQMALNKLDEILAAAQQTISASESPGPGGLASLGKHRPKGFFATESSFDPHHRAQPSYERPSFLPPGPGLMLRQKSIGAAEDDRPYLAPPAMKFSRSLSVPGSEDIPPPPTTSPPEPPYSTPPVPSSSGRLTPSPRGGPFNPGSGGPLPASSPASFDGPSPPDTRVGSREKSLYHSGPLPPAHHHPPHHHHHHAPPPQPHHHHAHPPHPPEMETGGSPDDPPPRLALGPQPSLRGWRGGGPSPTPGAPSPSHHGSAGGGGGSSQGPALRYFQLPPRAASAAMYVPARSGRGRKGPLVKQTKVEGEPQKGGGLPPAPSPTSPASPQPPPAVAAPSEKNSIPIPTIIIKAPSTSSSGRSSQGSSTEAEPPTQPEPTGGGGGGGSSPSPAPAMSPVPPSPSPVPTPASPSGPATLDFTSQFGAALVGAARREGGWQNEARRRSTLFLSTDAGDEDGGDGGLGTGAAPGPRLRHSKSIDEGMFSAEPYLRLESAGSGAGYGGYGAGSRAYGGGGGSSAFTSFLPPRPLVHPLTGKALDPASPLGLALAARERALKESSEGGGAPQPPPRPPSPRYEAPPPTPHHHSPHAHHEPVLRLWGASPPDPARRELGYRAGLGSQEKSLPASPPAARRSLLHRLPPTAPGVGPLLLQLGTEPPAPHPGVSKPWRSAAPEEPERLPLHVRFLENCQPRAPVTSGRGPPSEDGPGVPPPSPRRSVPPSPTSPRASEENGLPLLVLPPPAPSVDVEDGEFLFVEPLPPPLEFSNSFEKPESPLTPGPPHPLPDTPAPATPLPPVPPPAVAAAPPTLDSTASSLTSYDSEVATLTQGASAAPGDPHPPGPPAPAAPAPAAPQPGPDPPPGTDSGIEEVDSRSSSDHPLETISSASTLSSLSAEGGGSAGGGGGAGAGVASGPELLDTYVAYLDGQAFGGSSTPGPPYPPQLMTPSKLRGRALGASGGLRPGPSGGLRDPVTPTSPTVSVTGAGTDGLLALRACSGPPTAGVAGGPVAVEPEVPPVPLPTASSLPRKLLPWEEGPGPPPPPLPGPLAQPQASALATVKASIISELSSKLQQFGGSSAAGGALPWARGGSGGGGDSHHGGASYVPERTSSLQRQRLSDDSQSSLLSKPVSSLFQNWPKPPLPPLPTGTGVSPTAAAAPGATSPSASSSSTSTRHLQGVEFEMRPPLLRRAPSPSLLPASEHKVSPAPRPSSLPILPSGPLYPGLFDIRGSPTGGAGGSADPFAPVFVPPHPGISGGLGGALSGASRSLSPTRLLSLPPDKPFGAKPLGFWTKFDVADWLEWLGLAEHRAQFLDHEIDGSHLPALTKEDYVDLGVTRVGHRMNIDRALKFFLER
UniProt Q14974, sequence (whole entry, looked up): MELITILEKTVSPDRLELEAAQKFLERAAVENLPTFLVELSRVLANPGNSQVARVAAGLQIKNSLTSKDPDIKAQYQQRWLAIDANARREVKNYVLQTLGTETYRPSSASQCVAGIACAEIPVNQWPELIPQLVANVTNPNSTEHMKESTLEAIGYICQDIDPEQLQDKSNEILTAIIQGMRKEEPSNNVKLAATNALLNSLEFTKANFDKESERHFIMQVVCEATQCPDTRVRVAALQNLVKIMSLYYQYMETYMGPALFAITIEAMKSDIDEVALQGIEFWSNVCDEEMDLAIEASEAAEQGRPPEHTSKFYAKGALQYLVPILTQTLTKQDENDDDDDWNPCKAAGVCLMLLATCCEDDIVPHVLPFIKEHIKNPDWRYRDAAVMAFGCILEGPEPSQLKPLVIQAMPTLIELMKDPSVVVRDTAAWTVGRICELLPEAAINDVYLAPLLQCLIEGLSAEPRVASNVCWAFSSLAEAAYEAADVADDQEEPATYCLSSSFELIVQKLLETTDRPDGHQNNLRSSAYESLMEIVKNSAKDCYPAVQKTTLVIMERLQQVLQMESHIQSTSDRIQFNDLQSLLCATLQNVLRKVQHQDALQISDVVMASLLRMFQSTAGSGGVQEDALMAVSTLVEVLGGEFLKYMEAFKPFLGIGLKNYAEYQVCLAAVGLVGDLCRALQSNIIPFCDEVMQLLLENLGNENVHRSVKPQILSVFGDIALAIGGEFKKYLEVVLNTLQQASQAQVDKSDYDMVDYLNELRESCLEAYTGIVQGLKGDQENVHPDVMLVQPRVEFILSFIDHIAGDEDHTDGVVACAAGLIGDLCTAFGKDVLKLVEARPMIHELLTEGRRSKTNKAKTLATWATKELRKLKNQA

| SMILES | tested on | test | test system | setting | scale | quantity | value |
| --- | --- | --- | --- | --- | --- | --- | --- |
| C=CC[C@H]1OC(=O)CCNC(=O)[C@H](C)N(C)C(=O)[C@H]([C@@H](C)CC)N(C)C(=O)[C@H]([C@@H](C)CC)NC(=O)[C@@H]2[C@@H](C)CCN2C1=O | Platelet-derived growth factor receptor beta, extracellular domain (PDGFRB, Homo sapiens, UniProt P09619) | binding, microscale thermophoresis | – | – | – | Kd | ~5.43 µM |
| CC[C@H](C)[C@H](NC(=O)[C@H](CC(C)C)NC(=O)[C@H](CCC(=O)O)NC(=O)[C@@H]1CCCN1C(=O)[C@@H](N)Cc1ccccc1)C(=O)N[C@@H](CCC(N)=O)C(=O)N[C@@H](CC(=O)O)C(=O)N[C@H](C(=O)N[C@@H](CO)C(=O)N[C@H](C(=O)N[C@@H](CO)C(=O)N[C@@H](Cc1ccccc1)C(=O)N[C@@H](CO)C(=O)N[C@H](C(=O)N[C@H](C(=O)N[C@@H](CCCNC(=N)N)C(=O)O)[C@@H](C)O)[C@@H](C)O)[C@@H](C)O)[C@@H](C)O | SH3 and multiple ankyrin repeat domains protein 1, PDZ domain (SHANK1, Homo sapiens, UniProt Q9Y566) | binding, fluorescence polarization | – | with: FITC-labelled peptide | – | Kd | 4.3 ± 0.2 µM |
| CN1C(=O)[C@H](CCC(=O)O)NC(=O)[C@H](Cc2ccc(O)cc2)NC(=O)[C@H](CCCNC(=N)N)NC(=O)[C@@H](Cc2ccc(O)cc2)NC(=O)CSC[C@@H](C(N)=O)NC(=O)[C@H](CCCCN)NC(=O)[C@@H]2CCCN2C(=O)[C@H](CS)NC(=O)[C@H](CCC(=O)O)NC(=O)[C@H](Cc2ccc(O)cc2)N(C)C(=O)[C@H](CCCCN)NC(=O)[C@H](Cc2ccc(O)cc2)NC(=O)[C@@H]1Cc1ccc(O)cc1 | ipgm-1 | enzyme activity, inhibitor, luminescent coupled-enzyme ATP | – | – | – | AC50 | 1.7 µM |
| CSCC[C@H](NC(C)=O)C(=O)N[C@@H](CCC(N)=O)C(=O)N[C@H](C(=O)N[C@H]1CSCc2cccc(c2)CSC[C@@H](C(=O)NCC(=O)N[C@@H](Cc2ccc(O)cc2)C(=O)NCC(=O)N[C@@H](CO)C(=O)NCC(=O)N[C@@H](CO)C(=O)NCC(=O)N[C@@H](CO)C(=O)N[C@@H](CC(=O)O)C(=O)N[C@@H](Cc2ccc(O)cc2)C(=O)N[C@@H](CCCCN)C(=O)N[C@@H](CC(=O)O)C(=O)N[C@@H](CC(=O)O)C(=O)N[C@@H](CC(=O)O)C(=O)N[C@@H](CC(=O)O)C(=O)N[C@@H](CCCCN)C(N)=O)NC(=O)[C@H](CC(C)C)NC(=O)[C@H](C(C)C)NC(=O)[C@H](CC(C)C)NC(=O)[C@H](Cc2c[nH]cn2)NC(=O)[C@H](CCC(=O)O)NC(=O)[C@H](CCCCN)NC(=O)[C@H](Cc2ccccc2)NC(=O)[C@H]([C@@H](C)O)NC1=O)[C@@H](C)O | FGFR1 | binding, BLI | – | – | – | Kd | > 10 µM |
| O=C(O)COc1ccc(Cl)cc1 | Chloride channel protein (Torpedo marmorata, UniProt P21564, C212S) | ion current, inhibitor, inside-out patch clamp | – | intracellular, 60 mV | – | Kd | ~65000 µM |
| C=C(C)C12OC3(c4ccccc4)OC1C1C(O)C(Br)(CO)C(O)C4(O)C(=O)C(C)=CC4C1(O3)C(C)C2OC(=O)c1ccccc1 (centres unmarked) | Importin subunit beta-1 (KPNB1, Homo sapiens, UniProt Q14974) | – | – | – | – | Kd | 0.219 µM |
| N=C(N)NCCC[C@H](NC(=O)[C@H](CS)NC(=O)[C@H](Cc1ccc(O)cc1)NC(=O)[C@H](Cc1c[nH]c2ccccc12)NC(=O)[C@H](CCCNC(=N)N)NC(=O)[C@H](Cc1c[nH]c2ccccc12)NC(=O)[C@H](Cc1c[nH]cn1)NC(=O)CNC(=O)CN)C(=O)NCC(=O)NCC(=O)N[C@@H](CCCCN)C(N)=O | HCV IIB RNA | fluorescein-labelled RNA titration | – | 1 mM TCEP | – | Kd | 8.8 ± 0.8 µM |
| N=C(N)NCCC[C@H](NC(=O)[C@H](Cc1ccccc1)NC(=O)[C@@H]1CCCN1C(=O)[C@H](CO)NC(=O)[C@H](Cc1ccccc1)NC(=O)CNC(=O)[C@@H]1CCCN1C(=O)[C@@H]1CCCN1C(=O)[C@@H](N)CCCNC(=N)N)C(=O)N[C@@H](CCCCNS(=O)(=O)c1ccc(C2=c3cc4c5c(c3Oc3c2cc2c6c3CCCN6CCC2)CCC[N+]=5CCC4)c(S(=O)(=O)[O-])c1)C(=O)O | Oligopeptide-binding protein OppA (oppA, Lactococcus lactis subsp. lactis, UniProt Q07741) | binding, fluorescence anisotropy | – | pH 6, 18 °C, with: dye-labelled peptide | – | Kd | 8.5 ± 0.4 µM |
| O=C(Nc1ccc([As](O)O)cc1)c1cc(C(=O)Nc2ccc([As](O)O)cc2)cc(C(=O)Nc2ccc([As](O)O)cc2)c1 | Protein disulfide-isomerase, reduced (P4HB, Homo sapiens, UniProt P07237) | binding, absorbance titration | – | pH 7.5, 25 °C | – | Kd | 0.1 µM |
| CC[C@H](C)[C@H](NC(=O)[C@H](Cc1c[nH]cn1)NC(=O)[C@H](CCCCNC(=O)[C@@H](NC(=O)[C@H](CCCCN)NC(=O)CSC[C@H](NC(=O)[C@H](Cc1ccccc1)NC(=O)[C@H](CCCCNC(=O)[C@H](CC(C)C)NC(=O)[C@H](CCCCN)NC(=O)[C@H](CCCCN)NC(=O)CCS[C@@H]1O[C@H](CO)[C@H](O)[C@H](O)[C@H]1O)NC(=O)[C@H](CC(C)C)NC(=O)[C@H](CCCCN)NC(=O)[C@H](CCCCN)NC(=O)C[C@@H]1O[C@@H](C)[C@@H](O)[C@@H](O)[C@@H]1O)C(N)=O)[C@@H](C)CC)NC(=O)[C@@H](NC(=O)[C@H](CCCCN)NC(=O)CSC[C@H](NC(=O)[C@H](Cc1ccccc1)NC(=O)[C@H](CCCCNC(=O)[C@H](CC(C)C)NC(=O)[C@H](CCCCN)NC(=O)[C@H](CCCCN)NC(=O)CCS[C@@H]1O[C@H](CO)[C@H](O)[C@H](O)[C@H]1O)NC(=O)[C@H](CC(C)C)NC(=O)[C@H](CCCCN)NC(=O)[C@H](CCCCN)NC(=O)C[C@@H]1O[C@@H](C)[C@@H](O)[C@@H](O)[C@@H]1O)C(N)=O)[C@@H](C)CC)C(N)=O | Fucose-binding lectin PA-IIL (lecB, Pseudomonas aeruginosa, UniProt Q9HYN5) | binding, ITC | – | pH 7.5 | – | Kd | 0.327 µM |
| CSCC[C@H](NC(C)=O)C(=O)N[C@H](C(=O)N[C@@H](Cc1ccccc1)C(=O)N[C@@H](CC(C)C)C(=O)N[C@@H](CC(=O)O)C(=O)N[C@H](C(=O)N[C@H]1CSCc2cccc(c2)CSC[C@@H](C(=O)N[C@@H](Cc2ccc(O)cc2)C(=O)N[C@H](C(=O)N[C@@H](CO)C(=O)N[C@@H](Cc2ccccc2)C(=O)N[C@@H](CCSC)C(=O)NCC(=O)N[C@@H](CO)C(=O)NCC(=O)N[C@@H](CO)C(=O)NCC(=O)N[C@@H](CO)C(=O)N[C@@H](CC(=O)O)C(=O)N[C@@H](Cc2ccc(O)cc2)C(=O)N[C@@H](CCCCN)C(=O)N[C@@H](CC(=O)O)C(=O)N[C@@H](CC(=O)O)C(=O)N[C@@H](CC(=O)O)C(=O)N[C@@H](CC(=O)O)C(=O)N[C@@H](CCCCN)C(N)=O)C(C)C)NC(=O)[C@H](CCCNC(=N)N)NC(=O)[C@H]([C@@H](C)O)NC1=O)[C@@H](C)O)[C@@H](C)O | FGFR1 | binding, BLI | – | – | – | Kd | > 10 µM |
| CC(C)CC(NC(=O)C(NC(=O)NC(C(=O)O)C(C)C)C1CCNC(=N)N1)C(=O)NCCCNC(C(=O)O)C(OC1OC(CN)C(O)C1O)C1OC(n2ccc(=O)[nH]c2=O)C(O)C1O (centres unmarked) | Phospho-N-acetylmuramoyl-pentapeptide-transferase (mraY, Aquifex aeolicus, UniProt O66465) | isothermal titration calorimetry | – | 37 °C, with: 10 mM MgCl2 | – | Kd | 0.0204 µM and ~0.02 µM |
| CC[C@H](C)[C@H]1C(=O)O[C@H](C(C)C)C(=O)N(C)[C@@H]([C@@H](C)CC)C(=O)O[C@H](C(C)C)C(=O)N(C)[C@@H]([C@@H](C)CC)C(=O)O[C@H](C(C)C)C(=O)N1C | Heat shock protein HSP 90-beta (HSP90AB1, Homo sapiens, UniProt P08238) | binding, SPR | – | – | – | Kd | 15.9 µM |
| CN(C)CC1CCCCC1(O)c1cccc(O)c1 (centres unmarked) | Caco-2 TC7 monolayer | – | – | 50 µM, 3 h, apical pH 6.8, basolateral pH 7.4 | reference: B-to-A over A-to-B | efflux ratio | 2.3 |
| COc1cc(C(=O)NCCOCCOCCOCCNC(=O)c2ccc([18F])nc2)ccc1NC(=O)C1NC(CC(C)(C)C)C(C#N)(c2ccc(Cl)cc2F)C1c1cccc(Cl)c1F (centres unmarked) | SJSA-1 tumour model | – | host not given, brain | 2 h, tumour-bearing | – | tracer uptake | 0.19 %ID/g |
| CC(C)C[C@@H]1NC(=O)[C@H](Cc2ccc(O)cc2)NC(=O)[C@H](CCCNC(=N)N)NC(=O)[C@H](C(C)C)NC(=O)[C@@H]2CCCN2C(=O)[C@H](Cc2ccccc2)NC(=O)[C@H](C)NC(=O)[C@H](CC(N)=O)NC(=O)[C@H](Cc2ccc(OS(=O)(=O)F)cc2)NC(=O)[C@@H](Cc2ccccc2)NC(=O)CSC[C@@H](C(=O)NCCOCCOCC(=O)NCCOCCOCC(=O)N[C@@H](CCCCN=[N+]=[N-])C(N)=O)NC(=O)[C@H](Cc2c[nH]c3ccccc23)NC(=O)[C@H](CCCCN)NC(=O)[C@H](CCCCN)NC1=O | Nectin-4, extracellular domain (Homo sapiens, UniProt Q96NY8) | covalent binder, SPR single-cycle kinetics | PBS-T | 30 s contact, 25 °C | – | Kd | 2.82 µM |
| CNC(=O)C1CCN(c2ccccc2NC(=O)c2ccc(-c3cc(O)ccc3C)c(C)n2)CC1 | Ephrin type-B receptor 4 (EPHB4, Homo sapiens, UniProt P54760) | cell-free assay, TR-FRET | – | – | – | Ki | 0.0003 µM |
| CC[C@H](C)[C@H](NC(=O)[C@H](CCCNC(=N)N)NC(=O)[C@H](CO)NC(=O)[C@@H](NC(=O)[C@H](CC(=O)O)NC(=O)[C@H](CC(=O)O)NC(=O)CCCCCNC(=O)c1ccc2c(c1)C(=O)OC21c2ccc(O)cc2Oc2cc(O)ccc21)[C@@H](C)O)C(=O)N[C@@H](CCC(=O)O)C(=O)N[C@@H](CCC(=O)O)C(=O)N[C@H](C(=O)N[C@@H](CC(=O)O)C(=O)O)C(C)C | Stress-induced-phosphoprotein 1 (STIP1, Homo sapiens, UniProt P31948) | binding, FP | – | pH 7.4 | – | Kd | > 25 µM |
| CN[C@](C)(C[18F])C(=O)O | SK-OV-3 tumour model | – | host not given, kidney | 1 h, tumour-bearing | – | tracer uptake | 6.9 %ID/g |
| COc1ccc(C[C@H]2C(=O)N[C@@H](CC(N)=O)C(=O)N[C@@H](CC(=O)O)C(=O)N[C@@H](CO)C(=O)NCC(=O)N[C@@H](Cc3c[nH]c4ccccc34)C(=O)N(C)[C@@H](Cc3ccc(O)cc3)C(=O)N[C@@H](CC(N)=O)C(=O)N[C@@H]([C@@H](C)O)C(=O)N(C)[C@@H](Cc3ccccc3)C(=O)N[C@H](C(N)=O)CSCC(=O)N[C@@H](Cc3ccc(O)cc3)C(=O)N2C)cc1 | ipgm-1 | enzyme activity, inhibitor, luminescent coupled-enzyme ATP | – | – | – | AC50 | > 76.8 µM |
| CCC(C(=O)OC)C1N=C(c2ccc(Cl)cc2)c2cc(OC)ccc2-n2c(C)nnc21 (centres unmarked) | Bromodomain-containing protein 2, tandem bromodomains (BRD2, Homo sapiens, UniProt P25440, L110A/L383A) | binding, isothermal titration calorimetry | – | 30 °C, tandem double L/A mutant | – | Kd | 0.024 µM |
| CCC(=O)N(C)c1ccc(Cl)c(Cl)c1 | Salmonella typhimurium | Ames test | TA100 | 0.10 mg/plate, with rat liver S9 | – | revertants | 78 ± 13.1 revertants/plate |
| O=C(NCc1ccc(Cl)cn1)C(=O)C(Cc1ccccc1)NC(=O)C1CC(F)CN1C(=O)C(NC(=O)C1CCC(F)(F)CC1)C1CCCCC1 (centres unmarked) | Transmembrane protease serine 2 (TMPRSS2, Homo sapiens, UniProt O15393, Q253D/R252D/R255K/S251D/S254D) | binding | – | – | – | Kd | 10.1 µM |

Some of these lines once more:
| SMILES | tested on | test | test system | setting | scale | quantity | value |
| --- | --- | --- | --- | --- | --- | --- | --- |
| COc1cc(C(=O)NCCOCCOCCOCCNC(=O)c2ccc([18F])nc2)ccc1NC(=O)C1NC(CC(C)(C)C)C(C#N)(c2ccc(Cl)cc2F)C1c1cccc(Cl)c1F (centres unmarked) | SJSA-1 tumour model | – | host not given, brain | 2 h, tumour-bearing | – | tracer uptake | 0.19 %ID/g |
| COc1ccc(C[C@H]2C(=O)N[C@@H](CC(N)=O)C(=O)N[C@@H](CC(=O)O)C(=O)N[C@@H](CO)C(=O)NCC(=O)N[C@@H](Cc3c[nH]c4ccccc34)C(=O)N(C)[C@@H](Cc3ccc(O)cc3)C(=O)N[C@@H](CC(N)=O)C(=O)N[C@@H]([C@@H](C)O)C(=O)N(C)[C@@H](Cc3ccccc3)C(=O)N[C@H](C(N)=O)CSCC(=O)N[C@@H](Cc3ccc(O)cc3)C(=O)N2C)cc1 | ipgm-1 | enzyme activity, inhibitor, luminescent coupled-enzyme ATP | – | – | – | AC50 | > 76.8 µM |
| O=C(NCc1ccc(Cl)cn1)C(=O)C(Cc1ccccc1)NC(=O)C1CC(F)CN1C(=O)C(NC(=O)C1CCC(F)(F)CC1)C1CCCCC1 (centres unmarked) | Transmembrane protease serine 2 (TMPRSS2, Homo sapiens, UniProt O15393, Q253D/R252D/R255K/S251D/S254D) | binding | – | – | – | Kd | 10.1 µM |
